Published values pooled from the literature.

c1ccc(-c2n[nH]cc2-c2ccnc3ccccc23)nc1: “log2 fold change” -0.03 (MKK2 (Candida albicans); kinase binding, MIB/MS competition; Candida albicans lysate; 10 µM; reference: DMSO).
For COC1CN([C@H]2CC[C@H]([C@@]3(C)Oc4c(Cl)cc(C(=O)NCc5c(SC)cc(C)[nH]c5=O)c(C)c4O3)CC2)C1, “log2 fold change” read 1.17 (RNA-seq, refers to: mouse SHB homolog; mouse, HT-1376 xenograft, whole blood; dose not given, PRC2 target gene; reference: vehicle).
CC(C)c1ccc(N(C)c2ccc3c(c2)OCC[C@H]3CNc2cnccc2C(=O)O)cc1 gave an IC50 of ≥ 10 µM (G-361; cell growth or viability, ATP luminescence; 7 days).
CN1CCCNC(=O)c2cccc(c2)C(=O)NCCCN(C)CCCNc2cccc3c2C(=O)c2cccc(c2C3=O)NCCC1 — result for “log2 fold change”: 0.732 (SAS; RNA-seq, refers to: PVT1 mRNA; 1 µM, 6 h; reference: untreated cells).
Cn1ncc2cc(-c3cncc(Cl)c3N3CCC4(CCNC4=O)CC3)ccc21: “log2 fold change” -2.04 (LS174T; gene expression, microarray, refers to: MAT2A mRNA; concentration not given, 24 h; reference: untreated cells).
For C=CC(=O)Nc1cccc(Cn2ncc3cnc(Nc4cnn(CCOC)c4)nc32)c1, “percent of control” read 100% (YSK1 human; binding, KINOMEscan; 100 nM; lower = stronger binding).
Under “log2 fold change”, Cc1ncsc1-c1ccc(C(C)NC(=O)C2CC(O)CN2C(=O)C(NC(=O)CCCCCCCCCCN2CCCC(Nc3ncc(Cl)c(Nc4ccccc4S(=O)(=O)C(C)C)n3)C2)C(C)(C)C)cc1 (stereo not shown) is recorded as -1.52 (22Rv1; RNA-seq, refers to: NAB2 mRNA; concentration not given; reference: DMSO).
With CCN(C(=O)c1cc(F)ccc1Oc1nncnc1N1CCC2(C1)CN([C@H](CCCN(C)CCOC)C(C)C)C2)C(C)C the GI50 was > 10 µM (U2OS; cell growth or viability; 7 days).
CNS(=O)(=O)Nc1nccc(Cc2c(C)c3ccc(Oc4ncccc4F)cc3oc2=O)c1F has an IC50 of > 1 µM (REH; cell viability, CellTiter-Glo; 7 days).
The remaining binding of Nc1ncc(-c2cc(-c3cnn(CC(F)(F)F)c3)ncc2F)nc1C(=O)NC1CNCC(F)C1 (stereo not shown) is reported as 57% (HASPIN; KINOMEscan; 1 µM; reference: DMSO control).
